Results of several laboratories.
A part holds a random share of what one study measured. Positions count from the first letter of the parent shown.

Set 1 — technique: Sort-seq; item: YFP reporter; sample: E. coli; setting: PhoQ-PhoP variant library; with: 10 µM Mg2+; reference: high Mg2+ state; direction: higher = stronger signaling; measurement: fold induction
Molecule: PhoQ, residues 284 288 289 292 302 303 SMMNNA
PhoP, residues 12 14 15 18 19 NYFRM (Escherichia coli, UniProt P23836): 12.1
PhoP, residues 12 14 15 18 19 QYFSL (Escherichia coli, UniProt P23836): 1.92
PhoP, residues 12 14 15 18 19 TQALL (Escherichia coli, UniProt P23836): 72.1

Set 2 — technique: universal PBM; form: double-stranded DNA, one strand shown; sample: in vitro; tested at: 600 nM; direction: higher = stronger binding; measurement: E-score
Target: Sal-like protein 4, full length isoform A (SALL4, Homo sapiens, UniProt Q9UJQ4, residues 1-1053)
Sequence of UniProt Q9UJQ4 (whole entry, looked up): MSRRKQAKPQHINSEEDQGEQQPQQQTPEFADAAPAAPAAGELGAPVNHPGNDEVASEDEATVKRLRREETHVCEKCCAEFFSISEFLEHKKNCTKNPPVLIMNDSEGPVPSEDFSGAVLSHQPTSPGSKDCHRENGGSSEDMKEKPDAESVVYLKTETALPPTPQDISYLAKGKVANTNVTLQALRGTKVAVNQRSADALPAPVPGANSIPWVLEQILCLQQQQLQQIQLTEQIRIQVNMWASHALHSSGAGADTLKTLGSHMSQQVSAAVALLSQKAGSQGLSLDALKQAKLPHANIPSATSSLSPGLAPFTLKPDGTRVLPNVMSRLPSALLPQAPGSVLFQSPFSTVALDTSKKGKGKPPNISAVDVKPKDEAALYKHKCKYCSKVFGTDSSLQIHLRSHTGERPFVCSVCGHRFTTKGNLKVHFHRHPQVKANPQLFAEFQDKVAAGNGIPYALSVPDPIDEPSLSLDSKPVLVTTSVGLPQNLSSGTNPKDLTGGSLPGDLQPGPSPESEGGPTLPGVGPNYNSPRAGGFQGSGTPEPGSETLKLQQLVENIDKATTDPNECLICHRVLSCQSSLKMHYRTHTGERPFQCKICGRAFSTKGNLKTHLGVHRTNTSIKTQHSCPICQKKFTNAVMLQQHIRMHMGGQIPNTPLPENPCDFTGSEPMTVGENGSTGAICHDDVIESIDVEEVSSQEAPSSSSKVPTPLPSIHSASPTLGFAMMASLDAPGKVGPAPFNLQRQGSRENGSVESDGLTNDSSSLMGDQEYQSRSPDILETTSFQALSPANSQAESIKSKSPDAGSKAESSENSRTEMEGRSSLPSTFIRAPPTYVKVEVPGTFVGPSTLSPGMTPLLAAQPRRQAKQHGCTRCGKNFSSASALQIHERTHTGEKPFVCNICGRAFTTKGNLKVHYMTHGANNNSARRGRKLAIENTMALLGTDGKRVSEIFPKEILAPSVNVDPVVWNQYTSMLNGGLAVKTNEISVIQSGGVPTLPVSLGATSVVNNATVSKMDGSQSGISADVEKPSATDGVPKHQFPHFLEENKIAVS
Setting: 8-mer, flanks averaged, mean of replicates
GTTACTTA: 0.237
AAATATTG: 0.428
GCTACTAC: 0.171
GATCATGA: 0.111
AAGTCAAG: -0.0959
CCGTCATA: 0.19
GGATCCTA: -0.107
GCTCCAAC: -0.131
AAGGGAAC: -0.131
ACCTTCAC: -0.0608
ATCAGCCA: -0.2
ACCAGTCA: -0.0961

Set 3 — technique: protein binding microarray; form: double-stranded DNA, one strand shown; sample: in vitro; tested at: not given; reference: not given; direction: higher = stronger binding; measurement: E-score
Target: Histone acetyltransferase KAT6A, winged helix 2, GST fusion (KAT6A, Homo sapiens, UniProt Q92794, residues 85-181)
Setting: 8-mer, flanks averaged, mean of 2 arrays, mostly near background
Target sequence (chain): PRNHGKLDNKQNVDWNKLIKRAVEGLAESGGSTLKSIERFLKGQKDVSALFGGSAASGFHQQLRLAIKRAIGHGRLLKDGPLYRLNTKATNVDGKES
AGCGTGGC: 0.048
GCGCAGCA: 0.0142
CGCTGAGA: -0.0806
AGGGTGTA: 0.00507
TCCCTGCA: -0.0382
AACCCACC: 0.144
ACACCAAC: -0.182
AGGTGTCA: 0.0394

Set 4 — target: CCNF, cyclin fold, Cln2 fusion (human); technique: yeast growth competition, sequencing; sample: yeast; setting: strong parent motif; reference: not given; direction: higher = stronger binding; measurement: normalised enrichment score
Starting sequence: REV3L docking peptide (human); PPVIIKYIIINRF
PPVIIKYIIIARF [N11A]: 1.13
PPVIAKYIIINRF [I5A]: 0.421
PPVIIKAIIINRF [Y7A]: 1.68
PPVIIKYIIINRA [F13A]: 0.834
PPVIIKYIAINRF [I9A]: 0.653
PPVIIKYIIANRF [I10A]: 1.77
